# Results from different studies.
# Numbered parts are unrelated; each lists some results of a single study.
# Chain of UniProt P54762 (whole entry, looked up): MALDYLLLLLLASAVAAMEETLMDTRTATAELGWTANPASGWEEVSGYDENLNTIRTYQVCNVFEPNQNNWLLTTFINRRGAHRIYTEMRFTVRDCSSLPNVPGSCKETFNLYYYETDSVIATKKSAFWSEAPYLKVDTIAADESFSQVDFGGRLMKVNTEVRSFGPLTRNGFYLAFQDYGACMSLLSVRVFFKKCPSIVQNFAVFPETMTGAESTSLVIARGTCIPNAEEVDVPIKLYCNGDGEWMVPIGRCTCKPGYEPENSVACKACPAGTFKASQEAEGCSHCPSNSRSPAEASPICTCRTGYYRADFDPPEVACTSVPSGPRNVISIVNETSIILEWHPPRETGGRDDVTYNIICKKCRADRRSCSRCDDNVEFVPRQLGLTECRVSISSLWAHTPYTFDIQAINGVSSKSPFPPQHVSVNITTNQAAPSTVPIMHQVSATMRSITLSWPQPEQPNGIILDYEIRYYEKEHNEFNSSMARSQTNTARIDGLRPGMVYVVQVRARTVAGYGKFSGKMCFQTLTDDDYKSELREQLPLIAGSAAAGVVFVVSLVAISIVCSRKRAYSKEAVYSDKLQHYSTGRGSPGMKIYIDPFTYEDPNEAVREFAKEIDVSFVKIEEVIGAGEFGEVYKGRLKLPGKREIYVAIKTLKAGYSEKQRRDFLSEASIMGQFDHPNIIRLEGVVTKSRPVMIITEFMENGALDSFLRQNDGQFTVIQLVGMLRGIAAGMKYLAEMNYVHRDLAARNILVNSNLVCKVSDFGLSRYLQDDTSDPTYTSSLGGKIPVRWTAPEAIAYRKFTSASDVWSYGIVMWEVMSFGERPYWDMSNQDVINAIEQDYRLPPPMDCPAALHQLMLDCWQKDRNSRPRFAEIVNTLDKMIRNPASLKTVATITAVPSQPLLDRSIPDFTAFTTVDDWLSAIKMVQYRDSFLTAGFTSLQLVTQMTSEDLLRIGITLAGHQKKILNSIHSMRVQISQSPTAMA
# Chain of UniProt Q13043 (whole entry, looked up): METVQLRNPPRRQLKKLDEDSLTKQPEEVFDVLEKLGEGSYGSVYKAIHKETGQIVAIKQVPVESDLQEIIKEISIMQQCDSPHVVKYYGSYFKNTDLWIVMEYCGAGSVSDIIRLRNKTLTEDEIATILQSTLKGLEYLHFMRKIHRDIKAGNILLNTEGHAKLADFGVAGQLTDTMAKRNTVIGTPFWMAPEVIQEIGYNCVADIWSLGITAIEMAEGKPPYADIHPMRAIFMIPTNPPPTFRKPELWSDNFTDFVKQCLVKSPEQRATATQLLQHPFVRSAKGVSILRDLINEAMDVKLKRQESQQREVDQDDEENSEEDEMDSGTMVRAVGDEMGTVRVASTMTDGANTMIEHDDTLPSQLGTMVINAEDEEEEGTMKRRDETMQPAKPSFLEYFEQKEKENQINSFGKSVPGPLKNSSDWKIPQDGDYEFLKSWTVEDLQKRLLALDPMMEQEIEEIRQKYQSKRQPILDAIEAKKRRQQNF
# Chain of UniProt P42336 (whole entry, unmodified, looked up): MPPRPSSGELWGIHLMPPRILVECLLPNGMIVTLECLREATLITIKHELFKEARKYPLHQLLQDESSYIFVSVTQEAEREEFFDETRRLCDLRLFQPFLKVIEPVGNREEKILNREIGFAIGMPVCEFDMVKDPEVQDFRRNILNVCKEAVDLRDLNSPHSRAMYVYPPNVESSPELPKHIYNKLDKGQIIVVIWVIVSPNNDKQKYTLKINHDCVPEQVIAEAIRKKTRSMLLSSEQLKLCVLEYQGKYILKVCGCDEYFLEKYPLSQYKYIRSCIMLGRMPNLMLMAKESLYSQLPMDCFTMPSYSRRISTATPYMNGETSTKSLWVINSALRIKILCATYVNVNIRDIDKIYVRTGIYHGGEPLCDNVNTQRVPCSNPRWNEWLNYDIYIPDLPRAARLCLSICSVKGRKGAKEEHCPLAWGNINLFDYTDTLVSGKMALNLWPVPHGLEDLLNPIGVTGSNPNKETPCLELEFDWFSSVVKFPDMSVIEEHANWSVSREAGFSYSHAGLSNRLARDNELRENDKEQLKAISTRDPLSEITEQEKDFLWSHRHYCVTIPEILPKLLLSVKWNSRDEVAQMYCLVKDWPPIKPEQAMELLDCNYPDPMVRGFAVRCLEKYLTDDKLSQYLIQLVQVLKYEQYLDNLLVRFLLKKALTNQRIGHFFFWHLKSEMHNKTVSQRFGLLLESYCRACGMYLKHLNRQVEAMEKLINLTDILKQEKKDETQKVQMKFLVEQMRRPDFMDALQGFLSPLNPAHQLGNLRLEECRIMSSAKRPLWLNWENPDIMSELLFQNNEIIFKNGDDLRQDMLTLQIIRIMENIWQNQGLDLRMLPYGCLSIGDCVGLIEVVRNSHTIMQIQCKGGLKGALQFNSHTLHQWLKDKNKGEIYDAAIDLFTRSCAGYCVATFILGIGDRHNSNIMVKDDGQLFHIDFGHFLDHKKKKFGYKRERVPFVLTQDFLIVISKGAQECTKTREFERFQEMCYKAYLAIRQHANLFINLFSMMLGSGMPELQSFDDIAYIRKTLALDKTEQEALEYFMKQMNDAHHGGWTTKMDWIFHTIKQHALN
# Chain of UniProt Q86Z02 (whole entry, looked up): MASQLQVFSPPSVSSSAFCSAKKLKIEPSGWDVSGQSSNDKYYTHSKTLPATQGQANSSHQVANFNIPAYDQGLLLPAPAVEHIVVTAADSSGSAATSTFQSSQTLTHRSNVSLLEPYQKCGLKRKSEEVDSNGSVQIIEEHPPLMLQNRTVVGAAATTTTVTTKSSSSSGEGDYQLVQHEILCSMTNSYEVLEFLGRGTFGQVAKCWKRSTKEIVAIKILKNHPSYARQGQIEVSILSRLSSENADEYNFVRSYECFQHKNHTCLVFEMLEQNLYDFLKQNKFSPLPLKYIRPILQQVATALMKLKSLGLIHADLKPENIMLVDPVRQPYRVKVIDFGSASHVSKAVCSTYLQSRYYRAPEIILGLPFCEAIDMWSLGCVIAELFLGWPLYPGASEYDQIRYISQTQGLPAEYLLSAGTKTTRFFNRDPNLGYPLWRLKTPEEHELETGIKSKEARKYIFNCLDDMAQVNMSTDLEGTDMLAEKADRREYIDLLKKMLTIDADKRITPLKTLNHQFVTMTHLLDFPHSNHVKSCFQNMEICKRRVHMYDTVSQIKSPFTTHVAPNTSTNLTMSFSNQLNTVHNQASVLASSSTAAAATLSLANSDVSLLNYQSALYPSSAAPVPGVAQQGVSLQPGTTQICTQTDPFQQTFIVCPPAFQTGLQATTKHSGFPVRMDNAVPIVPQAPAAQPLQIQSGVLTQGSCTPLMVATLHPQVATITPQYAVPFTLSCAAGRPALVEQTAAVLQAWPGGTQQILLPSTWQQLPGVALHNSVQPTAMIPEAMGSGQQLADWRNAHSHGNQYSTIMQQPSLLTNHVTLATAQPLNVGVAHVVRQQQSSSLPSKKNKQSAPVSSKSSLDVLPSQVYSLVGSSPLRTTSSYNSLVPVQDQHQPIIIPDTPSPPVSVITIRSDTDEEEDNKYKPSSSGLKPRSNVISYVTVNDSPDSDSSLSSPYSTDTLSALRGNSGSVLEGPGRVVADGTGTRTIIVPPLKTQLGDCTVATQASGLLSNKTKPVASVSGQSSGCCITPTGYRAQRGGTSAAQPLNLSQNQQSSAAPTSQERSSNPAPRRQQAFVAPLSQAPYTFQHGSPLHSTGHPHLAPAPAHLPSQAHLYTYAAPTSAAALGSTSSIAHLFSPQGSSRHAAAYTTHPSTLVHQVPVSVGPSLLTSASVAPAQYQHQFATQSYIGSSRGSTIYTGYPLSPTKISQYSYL
# Chain of UniProt Q08345 (whole entry, looked up): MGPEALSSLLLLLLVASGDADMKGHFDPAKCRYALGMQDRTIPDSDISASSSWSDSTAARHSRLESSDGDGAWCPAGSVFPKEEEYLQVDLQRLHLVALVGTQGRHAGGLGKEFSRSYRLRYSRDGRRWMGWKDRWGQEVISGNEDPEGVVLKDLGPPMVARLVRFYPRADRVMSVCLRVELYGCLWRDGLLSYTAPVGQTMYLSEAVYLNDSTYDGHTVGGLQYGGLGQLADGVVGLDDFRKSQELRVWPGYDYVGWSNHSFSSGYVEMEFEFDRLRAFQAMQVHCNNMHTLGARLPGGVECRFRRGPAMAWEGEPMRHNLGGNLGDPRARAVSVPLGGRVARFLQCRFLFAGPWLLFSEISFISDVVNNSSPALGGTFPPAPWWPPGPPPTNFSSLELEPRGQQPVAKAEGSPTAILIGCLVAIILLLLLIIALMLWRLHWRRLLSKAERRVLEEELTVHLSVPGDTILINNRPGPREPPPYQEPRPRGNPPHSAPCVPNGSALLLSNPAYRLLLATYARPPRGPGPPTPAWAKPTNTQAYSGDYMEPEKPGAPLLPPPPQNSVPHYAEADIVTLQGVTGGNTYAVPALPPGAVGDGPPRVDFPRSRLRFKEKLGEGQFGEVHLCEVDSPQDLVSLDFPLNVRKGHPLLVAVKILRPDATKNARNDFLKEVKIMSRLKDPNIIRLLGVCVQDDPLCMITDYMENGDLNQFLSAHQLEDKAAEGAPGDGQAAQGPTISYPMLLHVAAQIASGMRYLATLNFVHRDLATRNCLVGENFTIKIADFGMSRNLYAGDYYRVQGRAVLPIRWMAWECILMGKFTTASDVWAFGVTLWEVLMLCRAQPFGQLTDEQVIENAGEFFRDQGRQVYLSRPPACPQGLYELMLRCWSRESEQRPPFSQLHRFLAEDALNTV

# Series 1
# Cell line: A-375
# Tested at: 100 µM
# Time: 36 h
SMILES,viability [%]
c1ccc(-c2ccc(C(c3ccccc3)n3ccnc3)cc2)cc1 (centres unmarked),-0.882
CCCCCCCCCCC[C@@H](C[C@@H]1OC(=O)[C@H]1CCCCCC)OC(=O)[C@H](CC(C)C)NC=O,11.8
CC(Cc1cccc(C(F)(F)F)c1)NCCOC(=O)c1ccccc1 (centres unmarked),0.927
C#C[C@]1(OC(C)=O)CC[C@H]2[C@@H]3CCC4=C[C@@H](OC(C)=O)CC[C@@H]4[C@H]3CC[C@@]21C,9.07

# Series 2
# Host: human
# Sample: microsomes or S9
# Tested at: 2 µM
# Time: 0.5 h
Compound,remaining compound [%]
N=c1c2c(-c3ccccc3)c(-c3ccccc3)n(Cc3ccccc3)c2ncn1CCO,77.8
OCc1cc2nc(-c3ccc(OC4CCOC4)cc3)ccc2o1 (centres unmarked),73
CCCNS(=O)(=O)c1nc2nc(C)cc(C)n2n1,77.1
CSc1[nH]c2c(C(F)(F)F)ccc(C(F)(F)F)c2c(=O)c1C(C)=O,93.8
CCOc1ccc(CNC(=O)C(NS(=O)(=O)c2ccc3c(c2)CCCC(=O)N3)C(C)C)cc1 (centres unmarked),66
CC(=O)c1ccc(S(=O)(=O)N(CCCO)Cc2cc3c(C)cc(C)cc3[nH]c2=O)cc1,29.5

# Series 3
# Target: Beta-adrenergic receptor kinase 1 (GRK2, Homo sapiens, UniProt P25098)
# Read-out: enzyme activity
# Mode: inhibitor
# Tested at: 0.5 µM
# Baseline: control
# Construct (P25098 1-689): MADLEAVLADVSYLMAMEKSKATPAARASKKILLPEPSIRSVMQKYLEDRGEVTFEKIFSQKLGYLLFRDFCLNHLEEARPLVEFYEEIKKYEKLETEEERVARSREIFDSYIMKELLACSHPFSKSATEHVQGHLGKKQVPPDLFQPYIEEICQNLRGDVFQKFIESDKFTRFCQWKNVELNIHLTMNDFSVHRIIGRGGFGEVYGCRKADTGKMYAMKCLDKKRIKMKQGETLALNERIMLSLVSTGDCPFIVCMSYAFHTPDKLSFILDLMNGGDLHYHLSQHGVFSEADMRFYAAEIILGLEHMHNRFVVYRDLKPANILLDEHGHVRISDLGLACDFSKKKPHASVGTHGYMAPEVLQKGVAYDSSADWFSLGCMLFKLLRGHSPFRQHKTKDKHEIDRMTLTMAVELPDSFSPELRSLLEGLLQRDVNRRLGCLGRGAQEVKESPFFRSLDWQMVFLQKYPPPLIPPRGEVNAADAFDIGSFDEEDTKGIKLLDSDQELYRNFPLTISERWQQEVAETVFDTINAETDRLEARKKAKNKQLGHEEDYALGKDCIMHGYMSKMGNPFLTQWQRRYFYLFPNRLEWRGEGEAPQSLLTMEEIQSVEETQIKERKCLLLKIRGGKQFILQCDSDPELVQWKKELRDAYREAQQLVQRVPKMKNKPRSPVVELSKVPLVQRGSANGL
SMILES,remaining activity [%]
O=C(CCCc1ccc(-c2ccccc2F)cc1)Nc1ccc(O)cc1,105
O=C(O)c1ccc2c3c1cccc3c(=O)n1c3ccccc3nc21,99.3
COc1ccc(CNC(=O)Nc2ncc([N+](=O)[O-])s2)cc1,96.4
CNC(=O)c1cc(Oc2ccc(NC(=O)Nc3ccc(Cl)c(C(F)(F)F)c3)cc2)ccn1,112
Cc1cccc(-c2[nH]c(C(C)(C)C)nc2-c2ccc3c(c2)OCO3)n1,105
NCCNc1ncc(C(N)=O)c(Nc2cccc(C(F)(F)F)c2)n1,100
Nc1ncnc2n[nH]c(Nc3ccc(F)cc3)c12,98.6
CCOC(=O)c1c(C)[nH]c(/C=C2\C(=O)Nc3ccccc32)c1C,98.2
Oc1ccc(-c2nc(-c3ccncc3)c(-c3ccc(F)cc3)[nH]2)cc1,101
Nc1ccc2ncnc(NCCc3ccc(Oc4ccccc4)cc3)c2c1,91.5
Cc1ccc(Nc2nccc(N(C)c3ccc4c(C)n(C)nc4c3)n2)cc1S(N)(=O)=O,90.3
COc1ccc(C(=O)Nc2sc3c(c2C(N)=O)CCCC3)cc1OC,96.8
O=C1NC(=O)C(c2cn(CCCn3ccnc3)c3ccccc23)=C1Nc1ccccc1,97.1
COc1cc2nccc(Oc3ccc(NC(=S)NC(=O)c4ccccc4C)cc3)c2cc1OC,95.6
CC(C)[C@H](CO)Nc1nc(Nc2cc(N)cc(Cl)c2)c2ncn(C(C)C)c2n1,83
OCC(O)CCON=C1C(c2c(O)[nH]c3ccccc23)=Nc2ccccc21 (centres unmarked),101

# Series 4
# SMILES: O=C(Nc1cccnn1)N1CCC(=Cc2cccc(Oc3ccc(C(F)(F)F)cn3)c2)CC1
# Read-out: cell-free assay
# Method: competition with immobilised ligand
# Tested at: 1 µM
target,remaining binding [%]
"HIPK1 (Homo sapiens, UniProt Q86Z02)",100
"STK4 (Homo sapiens, UniProt Q13043)",77
"EPHB1 (Homo sapiens, UniProt P54762)",100
"PLK2 (Homo sapiens, UniProt Q9NYY3)",100
"DDR1 (Homo sapiens, UniProt Q08345)",79
"PIK3CA (Homo sapiens, UniProt P42336, H1047Y)",82

# For quick reference, copied from above (series 3):
SMILES,remaining activity [%]
NCCNc1ncc(C(N)=O)c(Nc2cccc(C(F)(F)F)c2)n1,100
O=C1NC(=O)C(c2cn(CCCn3ccnc3)c3ccccc23)=C1Nc1ccccc1,97.1
